Experimental data from different studies.
Lines come from different studies, so protocols differ. ± gives the spread as reported.
Sequence of UniProt P30411 (whole entry, looked up): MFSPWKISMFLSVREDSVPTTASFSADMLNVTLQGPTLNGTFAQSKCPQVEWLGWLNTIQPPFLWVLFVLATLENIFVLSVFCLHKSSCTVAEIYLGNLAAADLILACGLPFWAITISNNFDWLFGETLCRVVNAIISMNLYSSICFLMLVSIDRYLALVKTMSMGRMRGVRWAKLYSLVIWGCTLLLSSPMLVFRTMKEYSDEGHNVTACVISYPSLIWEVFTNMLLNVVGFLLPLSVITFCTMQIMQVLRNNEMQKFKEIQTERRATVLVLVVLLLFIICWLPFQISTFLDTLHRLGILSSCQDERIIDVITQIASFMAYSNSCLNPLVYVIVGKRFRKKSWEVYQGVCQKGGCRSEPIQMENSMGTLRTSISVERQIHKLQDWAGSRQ
Sequence of UniProt P29466 (whole entry, looked up): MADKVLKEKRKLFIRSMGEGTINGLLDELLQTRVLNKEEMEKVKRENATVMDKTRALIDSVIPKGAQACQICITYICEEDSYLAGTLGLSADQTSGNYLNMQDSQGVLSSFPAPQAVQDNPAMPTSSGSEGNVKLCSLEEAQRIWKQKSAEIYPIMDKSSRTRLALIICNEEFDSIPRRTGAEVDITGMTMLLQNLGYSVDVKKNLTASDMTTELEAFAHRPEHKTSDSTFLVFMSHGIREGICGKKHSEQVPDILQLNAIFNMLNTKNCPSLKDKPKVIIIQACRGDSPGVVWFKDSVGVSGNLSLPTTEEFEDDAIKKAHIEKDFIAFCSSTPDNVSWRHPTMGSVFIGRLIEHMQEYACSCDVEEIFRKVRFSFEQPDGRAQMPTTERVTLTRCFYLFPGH
Sequence of UniProt Q12769 (whole entry, looked up): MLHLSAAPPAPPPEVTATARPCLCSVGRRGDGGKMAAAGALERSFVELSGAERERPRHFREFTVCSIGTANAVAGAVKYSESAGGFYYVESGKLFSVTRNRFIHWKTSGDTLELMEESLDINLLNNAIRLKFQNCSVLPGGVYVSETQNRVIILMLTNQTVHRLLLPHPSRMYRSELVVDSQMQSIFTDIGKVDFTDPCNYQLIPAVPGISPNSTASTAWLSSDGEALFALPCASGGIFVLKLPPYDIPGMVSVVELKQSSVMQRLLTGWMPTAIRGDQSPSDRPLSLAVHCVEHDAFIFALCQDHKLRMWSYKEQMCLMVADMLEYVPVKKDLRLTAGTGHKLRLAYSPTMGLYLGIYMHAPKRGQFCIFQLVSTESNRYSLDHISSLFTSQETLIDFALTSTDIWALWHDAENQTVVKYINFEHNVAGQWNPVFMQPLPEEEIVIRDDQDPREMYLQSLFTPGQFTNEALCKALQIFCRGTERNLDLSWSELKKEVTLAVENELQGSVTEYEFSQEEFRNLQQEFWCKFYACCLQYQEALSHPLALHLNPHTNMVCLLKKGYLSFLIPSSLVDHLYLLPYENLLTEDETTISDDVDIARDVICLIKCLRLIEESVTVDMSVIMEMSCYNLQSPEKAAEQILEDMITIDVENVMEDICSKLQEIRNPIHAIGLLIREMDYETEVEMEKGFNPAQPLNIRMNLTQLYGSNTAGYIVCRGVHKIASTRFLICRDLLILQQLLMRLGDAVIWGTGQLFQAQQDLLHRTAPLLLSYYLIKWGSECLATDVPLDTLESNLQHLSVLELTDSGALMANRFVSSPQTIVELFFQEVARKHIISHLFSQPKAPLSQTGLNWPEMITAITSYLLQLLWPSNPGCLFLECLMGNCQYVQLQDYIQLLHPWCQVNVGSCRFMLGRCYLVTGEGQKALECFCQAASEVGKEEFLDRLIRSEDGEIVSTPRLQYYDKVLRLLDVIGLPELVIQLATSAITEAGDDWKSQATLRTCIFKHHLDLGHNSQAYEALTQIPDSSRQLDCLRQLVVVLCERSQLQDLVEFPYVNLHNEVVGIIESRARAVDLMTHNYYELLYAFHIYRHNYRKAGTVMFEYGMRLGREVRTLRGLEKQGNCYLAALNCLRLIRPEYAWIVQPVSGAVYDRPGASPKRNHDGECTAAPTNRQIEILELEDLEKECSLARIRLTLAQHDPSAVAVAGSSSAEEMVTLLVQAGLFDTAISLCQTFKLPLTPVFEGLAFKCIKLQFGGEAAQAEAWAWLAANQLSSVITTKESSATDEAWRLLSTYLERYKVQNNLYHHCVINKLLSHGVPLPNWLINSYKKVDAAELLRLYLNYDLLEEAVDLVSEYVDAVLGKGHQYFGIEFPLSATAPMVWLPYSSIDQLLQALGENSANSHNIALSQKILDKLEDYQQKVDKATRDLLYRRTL
Sequence of UniProt Q5VT25 (whole entry, looked up): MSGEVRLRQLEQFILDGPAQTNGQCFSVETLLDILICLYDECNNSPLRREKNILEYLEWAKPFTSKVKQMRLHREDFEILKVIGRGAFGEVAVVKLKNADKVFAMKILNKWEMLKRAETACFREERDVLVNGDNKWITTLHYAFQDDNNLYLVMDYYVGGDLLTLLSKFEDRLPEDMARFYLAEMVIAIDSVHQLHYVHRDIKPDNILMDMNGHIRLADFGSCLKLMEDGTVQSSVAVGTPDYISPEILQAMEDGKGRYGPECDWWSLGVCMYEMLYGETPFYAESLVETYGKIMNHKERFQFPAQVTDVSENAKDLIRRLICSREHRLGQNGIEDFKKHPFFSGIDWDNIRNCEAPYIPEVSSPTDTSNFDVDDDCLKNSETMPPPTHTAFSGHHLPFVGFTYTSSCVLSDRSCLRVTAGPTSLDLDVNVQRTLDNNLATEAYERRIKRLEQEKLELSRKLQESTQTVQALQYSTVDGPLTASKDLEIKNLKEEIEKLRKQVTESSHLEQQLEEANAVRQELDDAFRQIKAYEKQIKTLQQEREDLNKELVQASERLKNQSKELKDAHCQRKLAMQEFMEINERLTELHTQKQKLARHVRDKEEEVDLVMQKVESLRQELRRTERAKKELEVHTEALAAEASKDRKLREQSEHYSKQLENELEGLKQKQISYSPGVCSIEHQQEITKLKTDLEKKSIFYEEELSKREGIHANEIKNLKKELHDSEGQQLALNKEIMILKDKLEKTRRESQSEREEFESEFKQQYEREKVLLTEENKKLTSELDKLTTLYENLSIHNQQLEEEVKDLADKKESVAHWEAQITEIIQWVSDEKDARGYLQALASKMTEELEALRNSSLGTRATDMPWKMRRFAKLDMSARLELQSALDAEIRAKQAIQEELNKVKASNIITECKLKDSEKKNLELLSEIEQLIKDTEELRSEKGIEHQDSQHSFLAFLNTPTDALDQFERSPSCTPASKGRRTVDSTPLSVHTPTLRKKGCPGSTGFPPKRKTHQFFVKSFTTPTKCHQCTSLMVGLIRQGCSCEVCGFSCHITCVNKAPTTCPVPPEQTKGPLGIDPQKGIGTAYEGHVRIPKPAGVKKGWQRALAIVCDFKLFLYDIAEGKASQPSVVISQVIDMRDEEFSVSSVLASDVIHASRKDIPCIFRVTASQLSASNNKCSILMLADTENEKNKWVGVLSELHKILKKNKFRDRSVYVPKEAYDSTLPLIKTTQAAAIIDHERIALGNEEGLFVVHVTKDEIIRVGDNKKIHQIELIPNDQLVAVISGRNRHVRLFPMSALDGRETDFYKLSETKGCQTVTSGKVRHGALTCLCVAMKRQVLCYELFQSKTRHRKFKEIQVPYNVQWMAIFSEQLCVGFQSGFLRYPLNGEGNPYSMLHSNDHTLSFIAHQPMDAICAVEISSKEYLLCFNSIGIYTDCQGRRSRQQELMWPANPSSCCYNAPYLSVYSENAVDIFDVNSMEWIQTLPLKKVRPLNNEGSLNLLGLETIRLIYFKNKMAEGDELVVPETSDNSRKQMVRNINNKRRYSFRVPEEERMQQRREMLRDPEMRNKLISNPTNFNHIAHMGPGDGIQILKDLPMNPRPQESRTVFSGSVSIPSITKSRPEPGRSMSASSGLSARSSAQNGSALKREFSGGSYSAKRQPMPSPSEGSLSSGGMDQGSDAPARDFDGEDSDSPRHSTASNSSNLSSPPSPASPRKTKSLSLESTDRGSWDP

O=C(Nc1ccccc1)C1CCN(C(=O)Oc2cccnc2)CC1 — subjects with Haematoma adverse event (adverse event reporting; healthy women; oral, 20 mg): 7.1%
COc1cc2c(cc1OC)CN(CCc1ccc(NC(=O)c3cccc4c(=O)c5cccc(OC)c5[nH]c34)cc1)CC2 — Tmax (CD-1 mouse, male, lung; intraperitoneal, 10 mg/kg): 1 h
CC(C)(O)c1cc(Nc2cc(Oc3cn(C4CC4)nc3C3CCOCC3)ccn2)ccn1 — treatment-related adverse events (Pyrexia; patients with advanced cancer, grade 4 glioma expansion; oral, 50 mg twice daily, grade ≥3, 2 weeks on/2 weeks off schedule): 0%
Cc1cccc(Cn2nc(C3CC3)c3c(NC(=O)c4cnc5cc(OCCN6CCN(C)CC6)ccn45)cccc32)n1 — all-cause adverse events (CTCAE v4.03, measured: all adverse events; advanced solid tumour patients; oral, dose not given, all cohorts, with: pembrolizumab IV every 3 weeks): 98.2%
[O-][S+]1CCc2nc(N3CCC(c4ncc(Cl)cn4)CC3)nc(NC3(CO)CCC3)c21 (stereo not drawn) — Nausea adverse events (idiopathic pulmonary fibrosis patients; 18 mg twice daily): 10%
CCN(CCO)CCCC(C)Nc1ccnc2cc(Cl)ccc12 (stereo not drawn) — white cell decrease patients (newly diagnosed glioblastoma patients; oral, 200 mg/dose, grade 4, with: radiotherapy and temozolomide): 33%
CC(=O)c1c(C)c2cnc(Nc3ccc(C4CCN(CCS(C)(=O)=O)CC4)cn3)nc2n(C2CCCC2)c1=O — AUC(0-t) (human, dose-escalation trial, plasma; oral, 100 mg twice daily, day 21, multiple doses): 3440 ng·h/mL
C[C@H]1CN(c2n[nH]c3nc(N[C@H]4CC[C@H](NS(=O)(=O)CCC(F)(F)F)CC4)ncc23)CCO1 — remaining binding (Nuclear pore complex protein Nup160 (Homo sapiens, UniProt Q12769); Kinobeads competition, measured: NUP160; 20 µM, unit not given; reference: vehicle): 1.17
CCCSc1ccc2nc(NC(=O)OC)[nH]c2c1 — lymphocytes (mouse, blood; oral, 50 mg/kg, tolerability, mean): 79.9%
OCc1ncc2n1-c1ccc(Cl)cc1C(c1ccccc1F)=NC2 — geometric LS mean ratio of Cmax (CYP3A4 (human); human, plasma; oral, 2 mg midazolam, Day 1, with: single dose encorafenib and binimetinib; reference: Day -7): 1.12
OC(c1cc(C(F)(F)F)nc2c(C(F)(F)F)cccc12)C1CCCCN1 (stereo not drawn) — IC50 (Plasmodium falciparum; cell growth; 3D7): 27 nM
CN1CC[C@@H](c2c(O)cc(O)c3c(=O)cc(-c4ccc(C(F)(F)F)cc4Cl)oc23)[C@@H]1CO — patients with adverse event (measured: Sepsis; B-cell malignancies; oral, 200 mg, intermittent dosing): 0%
C[C@]1(CO)Cc2ncn(-c3ccc(C#N)c(Cl)c3)c2C(=O)O1 — subjects with drug-related dysgeusia (human; 2 mg single dose): 0%
O[C@H]1CCCN[C@@H]1CCCn1cnc2c(Cl)c(Cl)ccc21 — Cmax at steady state (healthy humans, plasma; oral, 150 mg twice daily): 287 ng/mL
O=C(O)CCCOc1ccc(F)cc1-c1cc(-c2ccccc2C(F)(F)F)n(-c2ccccc2)n1 — leukocyte differential (measured: Basophils; Crl:CD(SD) rats, female, blood; iv, 25 µg/kg, 1 day): 0.3 ± 0.1%
Clc1ccc(-c2ccc(Cl)cc2Cl)cc1 — log K(PDMS-water) (fresh water; 20 °C, S30-1 sampler, 30 µm): 5.23 ± 0.05
CN[C@H](CC(C)C)C(=O)N[C@H]1C(=O)N[C@@H](CC(N)=O)C(=O)N[C@H]2C(=O)NC3C(=O)N[C@H](C(=O)N[C@H](C(=O)NCCC[N+](C)(C)C)c4cc(O)cc(O)c4-c4cc3ccc4O)[C@H](O)c3ccc(c(Cl)c3)Oc3cc2cc(c3OC2OC(CO)C(O)[C@H](O)[C@@H]2O[C@H]2CC(C)(NCc3ccc(-c4ccc(Cl)cc4)cc3)[C@H](O)[C@H](C)O2)Oc2ccc(cc2Cl)[C@H]1O (stereo partly drawn) — MTD (mouse; intravenous): 50 mg/kg
CC[C@H](C)[C@H](NC(=O)[C@H](Cc1ccccc1)NC(=O)[C@H](CCC(=O)O)NC(=O)[C@H](CCCNC(=N)N)NC(=O)[C@H](C)NC(=O)[C@H](C)NC(=O)[C@H](CCC(N)=O)NC(=O)[C@H](CCC(=O)O)NC(=O)[C@H](CCC(=O)O)NC(=O)[C@H](CC(C)C)NC(=O)[C@H](Cc1ccc(O)cc1)NC(=O)[C@H](CO)NC(=O)[C@H](CO)NC(=O)[C@@H](NC(=O)[C@H](CC(=O)O)NC(=O)[C@H](CO)NC(=O)[C@@H](NC(=O)[C@H](Cc1ccccc1)NC(=O)[C@@H](NC(=O)CNC(=O)[C@H](CCC(=O)O)NC(=O)[C@H](C)NC(=O)CCc1c[nH]cn1)[C@@H](C)O)[C@@H](C)O)C(C)C)C(=O)N[C@@H](C)C(=O)N[C@@H](Cc1c[nH]c2ccccc12)C(=O)N[C@@H](CC(C)C)C(=O)N[C@H](C(=O)N[C@@H](CCCNC(=N)N)C(=O)NCC(=O)N[C@@H](CCCNC(=N)N)C(=O)N[C@@H](CCCCNC(=O)COCCOCCNC(=O)COCCOCCNC(=O)CC[C@H](NC(=O)CCCCCCCCCCCCCCCCC(=O)O)C(=O)O)C(=O)NCC(=O)NCC(=O)N[C@@H](CO)C(=O)N[C@@H](CCCCNc1c(NCCCCCN(O)C(=O)CCC(=O)NCCCCCN(O)C(=O)CCC(=O)NCCCCCN(O)C(C)=O)c(=O)c1=O)C(=O)O)C(C)C [zirconium-89 labelled] — tissue uptake (gamma counting; rat, skin of neck; intravenous, 3 nmol/kg, 168 h): 0.17 %ID/g
Clc1cc(Cl)c(-c2cc(Cl)c(Cl)c(Cl)c2Cl)cc1Cl — log K(PDMS-water) (fresh water; 12 (unit not given), 20 °C, S30-1 sampler, 30 µm): 6.67 ± 0.07
COc1cc(Nc2ncc(F)c(Nc3ccc4c(n3)NC(=O)C(C)(C)O4)n2)cc(OC)c1OC — IC50 (Caspase-1 (CASP1, Homo sapiens, UniProt P29466)): > 10000 nM
COc1cc2c(Oc3ccc4[nH]c(C)cc4c3F)ccnc2cc1OCC1(N)CC1 — Headache incidence (paediatric recurrent refractory sarcoma; 10 mg): 25%
COc1ccc(-c2c(-c3ccc(C#N)c(F)c3)nc(N3CCC(N)CC3)n(C)c2=O)cc1F — serious adverse event incidence (measured: bone pain; human patients; oral, 60 mg, dose expansion): 0%
CN1CCN(c2ccc(Nc3nccc(-c4cccc(F)c4)n3)cc2C(F)(F)F)CC1 — toxicity (zebrafish embryos; 50 µM, 5 d): 0%
COc1cccc(-c2n[nH]c(SCc3ccccn3)n2)c1OC — revertant colonies per plate (Salmonella typhimurium; Ames test, preincubation; TA100; 0.50 mg/plate, with rat liver S9): 141
C[C@@H](O)[C@@H](CO)NC(=O)[C@@H](CCCNC(=N)N)NC(=O)[C@@H]1CCCN1C(=O)[C@@H]1CSSC[C@H](NC(=O)[C@H](Cc2ccccc2)NC(=O)CN2CCN(CC(=O)O)CCN(CC(=O)O)CCN(CC(=O)O)CC2)C(=O)N[C@@H](Cc2ccc(O)cc2)C(=O)N[C@@H](Cc2ccccc2)C(=O)N[C@@H](CCC(N)=O)C(=O)N[C@@H](CC(N)=O)C(=O)N1 [gallium-68 labelled] — tissue uptake (Wistar rat, blood; intravenous, 8 MBq, 60 min, group mean): 1.07 %ID/g
CC(C)C[C@@H]1NC(=O)[C@H](CC(N)=O)NC(=O)[C@H](CCCNC(=N)N)NC(=O)[C@H]([C@@H](C)O)NC(=O)[C@@H]2CSSC[C@@H]3NC(=O)[C@H]([C@@H](C)O)NC(=O)CNC(=O)CNC(=O)[C@H](C(C)C)NC(=O)[C@@H]4CSSC[C@H](NC(=O)[C@H](CCCCN)NC(=O)[C@H](CSSC[C@H](NC(=O)[C@H](C(C)C)NC(=O)[C@@H]5CCCN5C(=O)[C@H](CC(C)C)NC1=O)C(=O)NCC(=O)N[C@@H](CCC(=O)O)C(=O)N[C@@H]([C@@H](C)O)C(=O)N4)NC(=O)CNC(=O)[C@@H]1CCCN1C(=O)[C@H]([C@@H](C)O)NC(=O)[C@H](CC(N)=O)NC3=O)C(=O)N[C@@H](CO)C(=O)N[C@@H](Cc1c[nH]c3ccccc13)C(=O)N1CCC[C@H]1C(=O)N[C@@H](C(C)C)C(=O)N2 — remaining peptide (HPLC; ammonium bicarbonate 0.1 M; 180 µM, 7 days, pH 9.0, 37 °C, deamidation stability): 96.9 ± 0.7%
CCN1CCN(Cc2ccc(Nc3ncc(F)c(-c4cc(F)c5nc6n(c5c4)[C@H](C)CCC6)n3)nc2)CC1 — Hyponatremia incidence, any grade (advanced solid tumour patients; dose not given, Phase Ia monotherapy): 20.8%
CO[C@H]1C[C@@H]2CC[C@@H](C)[C@@](O)(O2)C(=O)C(=O)N2CCCC[C@H]2C(=O)O[C@H]([C@H](C)C[C@@H]2CC[C@@H](OC(=O)NCCOCCOCCOCCOCCOCCOCCOCCOCCC(=O)N3CCc4cc(Cn5nc(-c6ccc7oc(N)nc7c6)c6c(N)ncnc65)ccc4C3)[C@H](OC)C2)C[C@@H](O)[C@H](C)/C=C(\C)[C@@H](O)[C@@H](OC)C(=O)[C@H](C)C[C@H](C)/C=C/C=C/C=C/1C — dyspnoea incidence (patients with advanced solid tumours; intravenous, 10 mg weekly, grade 3 or higher): 12.5%
Nc1nc2cc(-c3ccc4ncc(C(=O)N5CCOCC5)n4c3)ccc2o1 — patients with grade ≥3 AEs (advanced solid tumour patients; dose not given, at least 1 AE, all schedules; reference: patients): 54%
CC1(C)[C@H](C(=O)OCc2cccc(Oc3ccccc3)c2)[C@@H]1C=C(Cl)Cl — enzyme contribution to clearance (measured: CYP2B6; human, age 1 year, recombinant human CYP2B6; 0.1 µM): 2.66%
CC(=O)N1CCC(C(=O)N2CCN3C(=O)c4cc(-c5ccccc5)ccc4NC(=O)C3C2)CC1 (stereo not drawn) — revertants per plate (Salmonella typhimurium; TA1537; 5.0 µg/plate): 10.5
Cc1nonc1Cn1nnc2c(N3CC[C@H](O)C3)nc(C(C)(C)C)nc21 — dose-normalised AUC(0-inf) (C57BL/6 mice, plasma; intravenous, dose not given): 558 kg·ng·h/mL/mg
Cn1ncc(-c2nc(N[C@H]3CC[C@H](N)CC3)ncc2Cl)c1CC1CC1 — adverse event incidence (measured: pneumonia grade 3 or higher; human patients phase I; dose not given): 17%
CCN1[C@@H](C(=O)NC23CCC(C(=O)O)(CC2)CC3)[C@H](c2cccc(Cl)c2F)[C@]2(C(=O)Nc3cc(Cl)ccc32)C12CCCCC2 — Embolism incidence (patients with advanced solid tumours; oral, dose not given, all doses): 4.8%
O=C(Nc1cccnn1)N1CCC(=Cc2cccc(Oc3ccc(C(F)(F)F)cn3)c2)CC1 — inhibition (B2 bradykinin receptor (BDKRB2, Homo sapiens, UniProt P30411); binding; 10 µM, with: [3H]bradykinin): 2%
COc1ccc(N2C(=O)N(c3c(C)cccc3Cl)Cc3cnc(Nc4ccc(C5CCN(C)CC5)cc4OC)nc32)nc1 — inhibition (Serine/threonine-protein kinase MRCK alpha (CDC42BPA, Homo sapiens, UniProt Q5VT25); kinase activity, inhibitor; 0.5 µM, kinase MRCK-ALPHA): 5%
O=S(=O)(Nc1ccccc1)c1ccc(NC(=S)Nc2ccccc2)cc1 — blood cell fraction (measured: NE%; male mouse, blood; oral, 20 mg/kg daily, 14 days): 15.2%
Cc1cc(C(=O)NC(C)(C)COc2cccc3c2C(N)=NS(=O)(=O)N3)cc(C)n1 — revertant ratio (Salmonella typhimurium; Ames test, initial; TA98; 15.0 µg/plate; reference: solvent control): 1.1
CC[C@H](C)[C@@H]1NC(=O)[C@@H]2CCCN2C(=O)[C@H](CC(C)C)NC(=O)[C@H](CC(C)C)NC(=O)CNC(=O)[C@@H](NC(=O)[C@@H](NC(=O)[C@H](CC(=O)O)NC(=O)CNC(=O)[C@@H](NC(=O)[C@H](C)NC(=O)CNC(=O)[C@H](CCCCN)NC(=O)[C@H](CC(C)C)NC(=O)[C@H](CC(C)C)NC(=O)[C@H](CCCCN)NC(=O)CNC(=O)[C@@H](NC(=O)[C@@H](N)CC(C)C)C(C)C)C(C)C)C(C)C)CSSC[C@@H](C(=O)O)NC1=O — log2 fold change (RNA-seq, measured: Adrb2; mouse, traumatic brain injury model, frontal cortex and hippocampus; dose not given; reference: TBI alone): -1.83

For quick reference, copied from above:
COc1cc2c(Oc3ccc4[nH]c(C)cc4c3F)ccnc2cc1OCC1(N)CC1 — Headache incidence (paediatric recurrent refractory sarcoma; 10 mg): 25%
Cc1cccc(Cn2nc(C3CC3)c3c(NC(=O)c4cnc5cc(OCCN6CCN(C)CC6)ccn45)cccc32)n1 — all-cause adverse events (CTCAE v4.03, measured: all adverse events; advanced solid tumour patients; oral, dose not given, all cohorts, with: pembrolizumab IV every 3 weeks): 98.2%
O[C@H]1CCCN[C@@H]1CCCn1cnc2c(Cl)c(Cl)ccc21 — Cmax at steady state (healthy humans, plasma; oral, 150 mg twice daily): 287 ng/mL
O=C(Nc1ccccc1)C1CCN(C(=O)Oc2cccnc2)CC1 — subjects with Haematoma adverse event (adverse event reporting; healthy women; oral, 20 mg): 7.1%
CC(C)C[C@@H]1NC(=O)[C@H](CC(N)=O)NC(=O)[C@H](CCCNC(=N)N)NC(=O)[C@H]([C@@H](C)O)NC(=O)[C@@H]2CSSC[C@@H]3NC(=O)[C@H]([C@@H](C)O)NC(=O)CNC(=O)CNC(=O)[C@H](C(C)C)NC(=O)[C@@H]4CSSC[C@H](NC(=O)[C@H](CCCCN)NC(=O)[C@H](CSSC[C@H](NC(=O)[C@H](C(C)C)NC(=O)[C@@H]5CCCN5C(=O)[C@H](CC(C)C)NC1=O)C(=O)NCC(=O)N[C@@H](CCC(=O)O)C(=O)N[C@@H]([C@@H](C)O)C(=O)N4)NC(=O)CNC(=O)[C@@H]1CCCN1C(=O)[C@H]([C@@H](C)O)NC(=O)[C@H](CC(N)=O)NC3=O)C(=O)N[C@@H](CO)C(=O)N[C@@H](Cc1c[nH]c3ccccc13)C(=O)N1CCC[C@H]1C(=O)N[C@@H](C(C)C)C(=O)N2 — remaining peptide (HPLC; ammonium bicarbonate 0.1 M; 180 µM, 7 days, pH 9.0, 37 °C, deamidation stability): 96.9 ± 0.7%
